Experimental data of several laboratories.
Protocols differ between the studies behind these lines. “And” joins repeats or separate records; there may be more than shown. Numbers after ± are the reported error.
TNKS2: Poly [ADP-ribose] polymerase tankyrase-2 (TNKS2, Homo sapiens, UniProt Q9H2K2)
Uridine nucleoside ribohydrolase: Uridine nucleoside ribohydrolase (Trichomonas vaginalis, UniProt A2FTT0)
ERN2: Serine/threonine-protein kinase/endoribonuclease IRE2 (ERN2, Homo sapiens, UniProt Q76MJ5)
Alpha-amylase: Alpha-amylase (Bos taurus, UniProt Q3MHH8)
NPY2R: Neuropeptide Y receptor type 2 (NPY2R, Homo sapiens, UniProt P49146)
MMP2: 72 kDa type IV collagenase (MMP2, Homo sapiens, UniProt P08253)
TTBK2: Tau-tubulin kinase 2 (TTBK2, Homo sapiens, UniProt Q6IQ55)
HTR2A: 5-hydroxytryptamine receptor 2A (HTR2A, Homo sapiens, UniProt P28223)
AGTR1: Type-1 angiotensin II receptor (AGTR1, Homo sapiens, UniProt P30556)

Compound | target or system | assay | system | conditions | how to read | quantity | value
CC[C@H](C)[C@@H]1NC(=O)[C@H](Cc2ccccc2C(F)(F)F)NC(=O)CCSCc2cccc(n2)CSCCCNC(=O)[C@H](CCCCCC(=O)O)NC1=O | Protein deacetylase HDAC6 (HDAC6, Homo sapiens, UniProt Q9UBN7) | enzyme activity, inhibitor, fluorogenic |  | 30 µM |  | inhibition | 15%
O=[N+]([O-])c1ccc(Cn2cc(Cn3cc(CO)nn3)nn2)cc1 | Pleckstrin homology domain-containing family A member 1, PH domain (Homo sapiens, UniProt Q9HB21) | PI(3,4)P2 binding to PH domain, SPR |  | 200 µM |  | inhibition | 47 ± 8%
O=C(CC1CC2CCC1C2)NCCNC(=O)Cn1c(=O)[nH]c(=O)c2ccccc21 (stereo not drawn) | TNKS2 | enzyme activity, inhibitor |  | 0.104 µM |  | inhibition | 99%
CN1CCCNC(=O)c2cccc(c2)C(=O)NCCCN(C)CCCNc2cccc3c2C(=O)c2cccc(c2C3=O)NCCC1 | SAS | RNA-Seq, refers to: RBM6 mRNA |  | 1 µM, 6 h | relative to: untreated cells | log2 fold change | 0.49
Cn1cc(-c2ccc(C(N)=O)cc2)cn1 | Uridine nucleoside ribohydrolase | 19F NMR |  | 100 µM, with: 0.01% Triton X-100 |  | inhibition | 100%
C[C@H]1CN(C(=O)c2cn(-c3ccnc(N)n3)c3cc(C#CC4(O)CCCCC4)ccc23)CCN1 | ERN2 | cell-free assay, TR-FRET |  | 1 µM |  | inhibition | 2%
CC1=NN(c2ccccc2F)C(=O)/C1=N\Nc1ccc(S(N)(=O)=O)cc1 | Alpha-amylase | enzyme activity, inhibitor, glucose oxidase |  | 100 µg/mL, with: dextrin |  | inhibition | 14.4%
CC(C)Cn1c(SCC(=O)N2CCc3ccccc3C2)nc2cc(Cl)ccc2c1=O | 5-hydroxytryptamine receptor 1D (HTR1D, Homo sapiens, UniProt P28221) | ligand displacement, radioligand |  | 10 µM |  | inhibition | -5%
CCc1c(-c2ccc3[nH]ncc3c2)cnc(N)c1-c1ccc(O)cc1 | Ubiquitin carboxyl-terminal hydrolase 7 (USP7, Homo sapiens, UniProt Q93009) | enzyme activity, inhibitor |  | 50 µM |  | inhibition | 105% and 89.1%
C[Si](C)(C)C[C@@H](CN)CC(=O)O | NPY2R | ligand displacement, radioligand |  | 75 µM |  | inhibition | -10%
CC(=O)Nc1ccccc1-c1ccc(O)cc1 | Uridine nucleoside ribohydrolase | 19F NMR |  | 50 µM, with: 0.01% Triton X-100 |  | inhibition | 92.8%
NC(=O)[C@@H](O)C[C@H]1CCc2sc3ncnc(O[C@H]4CC[C@H](N5CCOCC5)CC4)c3c21 | Lymphokine-activated killer T-cell-originated protein kinase (PBK, Homo sapiens, UniProt Q96KB5) | enzyme activity, inhibitor |  | 10 µM |  | inhibition | 10%
O=C(CNc1nc(NNC(=O)c2ccc(Nc3nc(Nc4ccc(C(=O)NNc5nc(NCC(=O)NO)nc(N6CCCCC6)n5)cc4)nc(Nc4ccc(C(=O)NNc5nc(NCC(=O)NO)nc(N6CCCCC6)n5)cc4)n3)cc2)nc(N2CCCCC2)n1)NO | MMP2 | enzyme activity, inhibitor, fluorescence |  | 0.0001 µg/mL |  | inhibition | 48%
CN(Cc1ccc(/C=C/C(=O)NO)cc1)CC12CC3CC(CC(C3)C1)C2 | human CB1 receptor | agonist radioligand binding |  | 0.05 µM |  | inhibition | 17%
O=C(/C=C/c1cccc(OS(=O)(=O)Oc2ccc(Br)cc2)c1)NO | Histone deacetylase 9 (HDAC9, Homo sapiens, UniProt Q9UKV0) | enzyme activity, inhibitor, fluorescence |  | 10 µM |  | inhibition | 15%
O=C(CCCc1ccc2c(c1)OCCO2)NCCNC(=O)Cn1c(=O)[nH]c(=O)c2ccccc21 | TNKS2 | enzyme activity, inhibitor |  | 0.104 µM |  | inhibition | 75%
CN1CC[C@@H](COc2cnc(C#N)cc2-c2ccn3nc(NC(=O)C4CC4)cc3c2)C1 | TTBK2 | enzyme activity, inhibitor |  | 1 µM |  | inhibition | -7%
CC(=O)Nc1ccc(F)cc1-c1ccncc1 | Uridine nucleoside ribohydrolase | 19F NMR |  | 100 µM |  | inhibition | 100%
Cn1sc(Nc2c(Cl)ccc3ncccc23)c(C#N)c1=O | TNKS2 | enzyme activity, inhibitor |  | 10 µM |  | inhibition | 5%
Cc1nc2c(F)cc(-c3nc(Nc4ccc(CNC(=O)CCCCCCC(=O)NO)cc4)ncc3F)cc2n1C(C)C | TTBK2 | enzyme activity, inhibitor |  | 1 µM |  | inhibition | 12%
Cc1ccnc(OC[C@H]2CN(CCN3CCc4ccccc43)CCO2)c1 | HTR2A | radioligand binding |  | concentration not given, with: [3H]ketanserin |  | inhibition | 41.9%
Cc1cccnc1-c1ccc(C(N)=O)cc1 | Uridine nucleoside ribohydrolase | 19F NMR |  | 100 µM, with: 0.01% Triton X-100 |  | inhibition | 100%
CN(C)C/C=C/C(=O)Nc1ccc2nc(NCCCCCN(C)C)nc(NCCCCCCN(C)C)c2c1 | N-lysine methyltransferase SMYD2 (SMYD2, Homo sapiens, UniProt Q9NRG4) | enzyme activity, inhibitor, radiometric |  | 50 µM |  | inhibition | 77%

Compound | target or system | assay | system | conditions | how to read | quantity | value
C=CC(=O)N1Cc2nc(-c3cc(-c4cc(Cl)cnc4Cl)c(F)cc3F)n(-c3ccncn3)c2C1 | ERN2 | cell-free assay, inhibitor |  | 1 µM |  | inhibition | 3.7%
Cc1cccnc1-c1cccc(C#N)c1 | Uridine nucleoside ribohydrolase | 19F NMR |  | 100 µM, with: 0.01% Triton X-100 |  | inhibition | 100%
C[Si]1(C[C@H](CN)CC(=O)O)CCCC1 | NPY2R | ligand displacement, radioligand |  | 70 µM |  | inhibition | 7%
Cc1cc(C(=O)NCCNC(=O)c2cccc(COc3ccccc3C(N)=O)c2)n[nH]1 | TNKS2 | enzyme activity, inhibitor |  | 5 nM |  | inhibition | 82%
COCC(=O)N1CCc2cc(-c3csc(NC(=O)c4cc(OC)cc(OC)c4)n3)ccc21 | imidazoline I2 receptor, rat central | radioligand binding |  | 10 µM |  | inhibition | 15%
COc1ccc(CN2CC3CCCCN3C2=O)cc1 (stereo not drawn) | Uridine nucleoside ribohydrolase | 19F NMR |  | 100 µM, with: 0.01% Triton X-100 |  | inhibition | 100%
COC(=O)c1cccc2c1NC(=O)C2(O)CC(NC(=O)c1cc2[nH]ncc2cn1)C(=O)O (stereo not drawn) | D-3-phosphoglycerate dehydrogenase (PHGDH, Homo sapiens, UniProt O43175) | enzyme activity, inhibitor |  | 25 µM |  | inhibition | 26.1%
O=C(CN1CCO[C@@H](COc2cccc(Cl)c2)C1)N1CCc2ccccc21 | HTR2A | radioligand binding |  | concentration not given, with: [3H]ketanserin |  | inhibition | 62.8%
O=C(NCCCCc1ccccc1)n1c(=O)oc2cc(-c3ccc(F)cc3)ccc21 | Phospholipase A2 group V (PLA2G5, Homo sapiens, UniProt P39877) | enzyme activity, inhibitor |  | 10 µM |  | inhibition | 1.1%
C/C=C/C(=O)Nc1ccc2nc(NCCCCCN(C)C)nc(NCCCCCCN(C)C)c2c1 | Histone-lysine N-methyltransferase PRDM9 (PRDM9, Homo sapiens, UniProt Q9NQV7) | enzyme activity, inhibitor, radiometric |  | 50 µM |  | inhibition | 80%
CCn1cc(C(=O)O)c(=O)c2c(N)c(F)c(NC3CCCCC3)cc21 | ERN2 | kinase activity |  | 0.1 µM, with: ATP at Km |  | inhibition | -2.8%
COc1cc(-n2cc3cc(F)cc(C(N)=O)c3n2)cc(Cl)c1C1CC(O)(CCO)Cc2ccccc21 (stereo not drawn) | Protein mono-ADP-ribosyltransferase PARP3 (PARP3, Homo sapiens, UniProt Q9Y6F1) | enzyme activity, inhibitor |  | 10 µM |  | inhibition | 4.94%
Cc1cc(Cl)c(OCCOCCN2CCN(C)CC2)c(Br)c1.O=C(O)C(=O)O | Trypanosoma cruzi | reporter mRNA translation, inhibitor, refers to: Renilla luciferase mRNA | cell-free extract | concentration not given, test 1 | relative to: positive over negative control | translation activity | 120%
N=C(N)NCCCC(NC(=O)C(CC(=O)NO)Cc1ccc2ccccc2c1)C(=O)NC(Cc1c[nH]c2ccccc12)C(=O)NC(CCC(=O)O)C(N)=O (stereo not drawn) | MMP2 |  |  | 1 µM |  | inhibition | 22%
CO[C@@H](C)c1c(NC(=O)Nc2cnc(-n3nccn3)c(C(F)(F)F)c2)cnc2sc(C)nc12 | AGTR1 | ligand displacement, radioligand |  | 10 µM |  | inhibition | -6.6%
O=C(CNc1nc(Cl)nc(NNC(=O)c2ccc(Nc3nc(Nc4ccc(C(=O)NNc5nc(Cl)nc(NCC(=O)NO)n5)cc4)nc(Nc4ccc(C(=O)NNc5nc(Cl)nc(NCC(=O)NO)n5)cc4)n3)cc2)n1)NO | MMP2 | enzyme activity, inhibitor, fluorescence |  | 0.001 µg/mL |  | inhibition | 54%
O=C1c2sc(-c3ccc(N4CCC(CO)CC4)nc3F)nc2CCN1c1cccnc1 | AGTR1 | ligand displacement, radioligand |  | 1 µM |  | inhibition | -9%
CCc1ccc(N2CCC(O)C2)cc1 (stereo not drawn) | Uridine nucleoside ribohydrolase | 19F NMR |  | 100 µM |  | inhibition | 32.9%
CC1=NN(c2cccc(F)c2)C(=O)/C1=N\Nc1ccc(S(N)(=O)=O)cc1 | Alpha-amylase | enzyme activity, inhibitor, glucose oxidase |  | 200 µg/mL, with: dextrin |  | inhibition | 19.2%
CC(=O)C12NC(C)(C)CC1(C)C(=O)C1=C2c2c(c3c4n2C(C)(C)CC2=C4C4(CC(C)(C)NC(C)(C4)C2=O)CC3(C)C)C(=O)C(C)(C)N1 (single isomer, unassigned; (+)) | TRPM3 (Homo sapiens, UniProt Q9HCF6) | antagonist | HEK293T | 10 µM |  | inhibition | 25.76 ± 0.09%
CN1CCN(CC(=O)c2ccccc2)C1=O | Uridine nucleoside ribohydrolase | 19F NMR |  | 100 µM, with: 0.01% Triton X-100 |  | inhibition | 83.1%
CC(NS(=O)(=O)c1ccc(CCC(=O)N2CCN(C)CC2)cc1)c1ccccc1 (stereo not drawn) | Trypanosoma cruzi | reporter mRNA translation, inhibitor, refers to: Renilla luciferase mRNA | cell-free extract | concentration not given, test 1 | relative to: positive over negative control | translation activity | 107% and 108%

Excerpt of the above:
Compound | target or system | assay | system | conditions | how to read | quantity | value
COc1cc(-n2cc3cc(F)cc(C(N)=O)c3n2)cc(Cl)c1C1CC(O)(CCO)Cc2ccccc21 (stereo not drawn) | Protein mono-ADP-ribosyltransferase PARP3 (PARP3, Homo sapiens, UniProt Q9Y6F1) | enzyme activity, inhibitor |  | 10 µM |  | inhibition | 4.94%
Cc1cccnc1-c1ccc(C(N)=O)cc1 | Uridine nucleoside ribohydrolase | 19F NMR |  | 100 µM, with: 0.01% Triton X-100 |  | inhibition | 100%
C[Si](C)(C)C[C@@H](CN)CC(=O)O | NPY2R | ligand displacement, radioligand |  | 75 µM |  | inhibition | -10%
CCc1ccc(N2CCC(O)C2)cc1 (stereo not drawn) | Uridine nucleoside ribohydrolase | 19F NMR |  | 100 µM |  | inhibition | 32.9%
